Measured values from different studies.
Numbers after ± are the reported error.
Oprm1: Mu-type opioid receptor (Oprm1, Mus musculus, UniProt P42866)
OXTR: Oxytocin receptor (OXTR, Homo sapiens, UniProt P30559)
UniProt P30559, sequence (whole entry, looked up): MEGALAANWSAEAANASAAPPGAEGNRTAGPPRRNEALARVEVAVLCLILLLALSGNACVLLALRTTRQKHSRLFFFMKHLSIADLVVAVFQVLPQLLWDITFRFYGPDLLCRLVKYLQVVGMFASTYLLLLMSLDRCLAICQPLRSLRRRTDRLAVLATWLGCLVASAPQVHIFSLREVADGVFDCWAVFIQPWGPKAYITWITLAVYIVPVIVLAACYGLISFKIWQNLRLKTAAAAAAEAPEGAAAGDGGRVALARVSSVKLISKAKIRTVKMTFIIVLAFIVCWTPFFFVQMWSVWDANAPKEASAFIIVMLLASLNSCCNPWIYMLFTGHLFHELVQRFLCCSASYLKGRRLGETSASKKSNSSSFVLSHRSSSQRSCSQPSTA
Tmem97: Sigma intracellular receptor 2 (Tmem97, Rattus norvegicus, UniProt Q5U3Y7)
UniProt Q5U3Y7, sequence (whole entry, looked up): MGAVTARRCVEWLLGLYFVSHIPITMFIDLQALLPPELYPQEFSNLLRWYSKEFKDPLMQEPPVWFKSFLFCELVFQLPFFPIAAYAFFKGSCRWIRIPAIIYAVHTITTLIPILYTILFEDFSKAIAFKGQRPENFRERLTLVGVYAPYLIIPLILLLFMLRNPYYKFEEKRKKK
Slc18a2: Synaptic vesicular amine transporter (Slc18a2, Rattus norvegicus, UniProt Q01827)
UniProt Q01827, sequence (whole entry, looked up): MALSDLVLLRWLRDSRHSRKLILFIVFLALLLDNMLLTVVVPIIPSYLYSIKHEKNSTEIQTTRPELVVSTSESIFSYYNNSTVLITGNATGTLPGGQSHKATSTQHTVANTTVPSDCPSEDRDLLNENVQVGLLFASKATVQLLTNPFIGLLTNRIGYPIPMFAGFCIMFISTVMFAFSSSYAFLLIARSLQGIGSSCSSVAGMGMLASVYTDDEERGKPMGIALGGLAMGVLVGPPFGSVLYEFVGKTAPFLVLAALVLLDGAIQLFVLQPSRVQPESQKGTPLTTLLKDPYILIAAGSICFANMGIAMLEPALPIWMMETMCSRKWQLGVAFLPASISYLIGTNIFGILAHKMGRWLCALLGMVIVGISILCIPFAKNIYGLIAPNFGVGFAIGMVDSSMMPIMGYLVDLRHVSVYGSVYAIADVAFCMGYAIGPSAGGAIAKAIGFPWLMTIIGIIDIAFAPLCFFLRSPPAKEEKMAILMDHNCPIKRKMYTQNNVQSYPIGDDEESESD
TPR: Trypanothione reductase (TPR, Trypanosoma brucei brucei, UniProt P39051)
HTR2B: 5-hydroxytryptamine receptor 2B (HTR2B, Homo sapiens, UniProt P41595)
UniProt P41595, sequence (whole entry, looked up): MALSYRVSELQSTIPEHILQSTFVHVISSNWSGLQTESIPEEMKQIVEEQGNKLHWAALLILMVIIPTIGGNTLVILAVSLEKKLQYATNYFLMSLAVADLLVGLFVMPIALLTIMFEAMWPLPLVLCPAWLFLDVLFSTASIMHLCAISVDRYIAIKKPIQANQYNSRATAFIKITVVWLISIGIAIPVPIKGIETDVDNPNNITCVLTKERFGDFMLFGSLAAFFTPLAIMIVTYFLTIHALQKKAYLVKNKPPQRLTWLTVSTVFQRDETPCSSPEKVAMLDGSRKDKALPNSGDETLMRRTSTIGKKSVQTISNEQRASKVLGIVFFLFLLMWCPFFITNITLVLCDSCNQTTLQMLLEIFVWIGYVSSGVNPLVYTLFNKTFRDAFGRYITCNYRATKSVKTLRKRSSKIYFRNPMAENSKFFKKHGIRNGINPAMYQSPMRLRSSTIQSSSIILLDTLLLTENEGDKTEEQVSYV
UniProt P05089, sequence (whole entry, looked up): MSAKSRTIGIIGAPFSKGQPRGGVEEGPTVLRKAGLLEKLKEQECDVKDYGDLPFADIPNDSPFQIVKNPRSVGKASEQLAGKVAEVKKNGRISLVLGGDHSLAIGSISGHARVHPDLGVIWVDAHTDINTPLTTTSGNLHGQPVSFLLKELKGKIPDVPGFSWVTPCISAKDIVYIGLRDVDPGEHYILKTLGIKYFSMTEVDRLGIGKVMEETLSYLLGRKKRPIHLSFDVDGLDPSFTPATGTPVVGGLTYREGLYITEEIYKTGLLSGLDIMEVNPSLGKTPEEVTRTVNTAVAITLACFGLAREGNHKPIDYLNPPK
UniProt P25774, sequence (whole entry, looked up): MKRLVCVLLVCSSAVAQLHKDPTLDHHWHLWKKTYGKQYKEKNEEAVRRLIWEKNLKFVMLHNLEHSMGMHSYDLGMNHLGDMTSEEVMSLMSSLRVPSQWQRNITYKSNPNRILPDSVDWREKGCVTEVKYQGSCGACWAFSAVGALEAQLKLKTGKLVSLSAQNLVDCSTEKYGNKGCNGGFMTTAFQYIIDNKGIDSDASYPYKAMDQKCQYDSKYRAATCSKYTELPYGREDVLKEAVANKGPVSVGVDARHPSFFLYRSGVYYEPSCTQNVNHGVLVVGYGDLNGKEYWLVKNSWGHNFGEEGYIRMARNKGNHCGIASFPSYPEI
UniProt P50391, sequence (whole entry, looked up): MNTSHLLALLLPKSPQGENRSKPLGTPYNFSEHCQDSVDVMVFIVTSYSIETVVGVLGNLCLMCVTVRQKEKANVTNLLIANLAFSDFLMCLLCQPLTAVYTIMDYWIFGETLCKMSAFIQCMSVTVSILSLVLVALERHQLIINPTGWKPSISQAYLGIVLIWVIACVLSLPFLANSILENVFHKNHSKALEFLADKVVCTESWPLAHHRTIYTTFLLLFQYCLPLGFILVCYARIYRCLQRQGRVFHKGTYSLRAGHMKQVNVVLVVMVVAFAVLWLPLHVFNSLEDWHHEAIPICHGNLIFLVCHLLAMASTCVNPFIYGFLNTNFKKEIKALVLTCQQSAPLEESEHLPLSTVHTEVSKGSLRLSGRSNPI
UniProt P54764, sequence (whole entry, looked up): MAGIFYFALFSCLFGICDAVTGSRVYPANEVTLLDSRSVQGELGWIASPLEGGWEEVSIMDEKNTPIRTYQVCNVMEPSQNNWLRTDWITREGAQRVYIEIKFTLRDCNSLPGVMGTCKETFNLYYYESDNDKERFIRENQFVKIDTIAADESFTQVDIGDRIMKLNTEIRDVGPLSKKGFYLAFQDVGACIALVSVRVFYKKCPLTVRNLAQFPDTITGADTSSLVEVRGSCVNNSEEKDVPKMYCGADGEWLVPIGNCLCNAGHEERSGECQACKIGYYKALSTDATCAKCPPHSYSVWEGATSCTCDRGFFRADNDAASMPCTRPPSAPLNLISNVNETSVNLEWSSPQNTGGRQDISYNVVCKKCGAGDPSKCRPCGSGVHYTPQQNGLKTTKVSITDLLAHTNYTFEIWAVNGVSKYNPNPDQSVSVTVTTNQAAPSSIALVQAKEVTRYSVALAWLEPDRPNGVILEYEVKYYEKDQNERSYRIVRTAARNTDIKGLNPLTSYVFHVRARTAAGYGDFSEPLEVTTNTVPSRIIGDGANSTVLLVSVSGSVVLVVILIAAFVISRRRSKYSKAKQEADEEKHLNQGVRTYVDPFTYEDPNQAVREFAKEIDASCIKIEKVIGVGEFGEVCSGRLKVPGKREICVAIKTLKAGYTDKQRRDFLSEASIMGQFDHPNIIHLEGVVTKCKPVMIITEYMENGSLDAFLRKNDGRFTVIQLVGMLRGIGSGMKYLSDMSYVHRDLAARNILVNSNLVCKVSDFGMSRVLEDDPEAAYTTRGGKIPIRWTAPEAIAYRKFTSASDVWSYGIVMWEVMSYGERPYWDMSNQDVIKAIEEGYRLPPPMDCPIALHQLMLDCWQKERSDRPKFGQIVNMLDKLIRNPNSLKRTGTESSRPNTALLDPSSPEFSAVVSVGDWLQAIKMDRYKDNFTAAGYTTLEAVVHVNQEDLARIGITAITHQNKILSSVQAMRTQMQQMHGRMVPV
UniProt P41146, sequence (whole entry, looked up): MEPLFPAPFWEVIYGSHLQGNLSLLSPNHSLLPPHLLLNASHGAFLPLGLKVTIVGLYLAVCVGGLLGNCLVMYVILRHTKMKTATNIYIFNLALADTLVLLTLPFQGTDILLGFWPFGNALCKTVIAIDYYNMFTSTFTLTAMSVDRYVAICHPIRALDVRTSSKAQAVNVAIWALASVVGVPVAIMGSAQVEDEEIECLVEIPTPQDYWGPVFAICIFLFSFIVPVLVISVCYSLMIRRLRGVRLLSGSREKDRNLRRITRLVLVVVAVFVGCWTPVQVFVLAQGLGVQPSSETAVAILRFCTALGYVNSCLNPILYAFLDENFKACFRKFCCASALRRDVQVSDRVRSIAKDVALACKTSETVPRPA
UniProt P32300, sequence (whole entry, looked up): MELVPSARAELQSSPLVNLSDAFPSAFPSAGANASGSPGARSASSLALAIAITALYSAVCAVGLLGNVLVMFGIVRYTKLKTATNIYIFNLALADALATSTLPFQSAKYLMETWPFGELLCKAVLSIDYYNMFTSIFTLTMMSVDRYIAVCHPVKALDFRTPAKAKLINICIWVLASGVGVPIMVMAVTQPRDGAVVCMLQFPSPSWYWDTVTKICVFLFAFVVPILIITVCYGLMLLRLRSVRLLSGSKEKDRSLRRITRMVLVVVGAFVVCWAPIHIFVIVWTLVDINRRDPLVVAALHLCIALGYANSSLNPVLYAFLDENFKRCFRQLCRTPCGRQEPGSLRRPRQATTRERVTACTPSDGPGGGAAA
UniProt P0A6M2, sequence (whole entry, unmodified, looked up): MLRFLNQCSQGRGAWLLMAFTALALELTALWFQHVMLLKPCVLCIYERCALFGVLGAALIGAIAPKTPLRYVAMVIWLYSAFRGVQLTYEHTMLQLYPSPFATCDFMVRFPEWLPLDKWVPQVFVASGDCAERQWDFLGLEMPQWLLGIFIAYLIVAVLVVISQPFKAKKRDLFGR
UniProt P06733, sequence (whole entry, looked up): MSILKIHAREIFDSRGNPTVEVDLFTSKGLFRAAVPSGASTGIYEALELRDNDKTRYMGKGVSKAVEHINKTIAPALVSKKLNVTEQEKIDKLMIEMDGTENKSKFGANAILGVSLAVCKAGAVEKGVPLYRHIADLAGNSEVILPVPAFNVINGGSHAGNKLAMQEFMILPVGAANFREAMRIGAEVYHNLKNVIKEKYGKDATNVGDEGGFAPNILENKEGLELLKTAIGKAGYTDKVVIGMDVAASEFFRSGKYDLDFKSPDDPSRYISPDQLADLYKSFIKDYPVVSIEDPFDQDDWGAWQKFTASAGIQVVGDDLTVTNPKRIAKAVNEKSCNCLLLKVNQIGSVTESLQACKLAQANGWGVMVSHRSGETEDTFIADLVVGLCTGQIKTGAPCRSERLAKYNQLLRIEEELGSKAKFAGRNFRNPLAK

CC[C@H](C)[C@H](NC(=O)[C@H](CCC(=O)O)NC(=O)[C@H](Cc1ccc(N)cc1)NC(=O)[C@@H](C)NC(=O)[C@@H](N)Cc1ccc(O)cc1)C(=O)N[C@H](C(=O)NCC(N)=O)[C@@H](C)CC — Ki (Oprm1; ligand displacement, radioligand; cell membranes): > 1 µM
O=C(N[C@@H](Cc1ccc2ccccc2c1)C(=O)CCl)OCc1ccccc1 — Ki (Prothrombin (F2, Homo sapiens, UniProt P00734)): 72 ± 20 µM
O=C(CCCC[C@@H]1SC[C@@H]2NC(=O)N[C@@H]21)NCCCCCCCCN1[C@H]2[C@H](O)[C@@H](O)[C@H](O[C@@H]3OC[C@@H](O)[C@H](O)[C@H]3O)C[C@H]21 (stereo partly shown) — Ki (endo-1,4-beta-xylanase (Aspergillus aculeatus, UniProt A0A1L9WG58); covalent inhibitor; pH 5.0, with: 4MU-β-D-xylobioside 1 mM): 0.04 µM
CC[C@H](C)[C@H](NC(=O)[C@H](CCC(=O)O)NC(=O)[C@H](Cc1ccc(Cl)cc1)NC(=O)[C@@H](C)NC(=O)[C@@H](N)Cc1ccc(O)cc1)C(=O)N[C@H](C(=O)NCC(N)=O)[C@@H](C)CC — Ki (Oprm1; ligand displacement, radioligand; cell membranes): > 1 µM
CC[C@H](C)[C@@H]1NC(=O)[C@H](Cc2ccc(O)cc2)NC(=O)[C@@H](N)CCc2cn(nn2)C[C@@H](C(=O)N2CCC[C@H]2C(=O)N[C@@H](CC(C)C)C(=O)NCC(N)=O)NC(=O)[C@H](CC(N)=O)NC(=O)[C@H](CCC(N)=O)NC1=O — Ki (OXTR; ligand displacement, radioligand; cell membranes): 12 µM
CCC(=O)c1ccc2c(c1)sc(=O)n2CCCCN1CCCCCC1 — Ki (Tmem97; ligand displacement, radioligand): 0.0303 µM
c1ccc(CCCC2CCC(CCCc3ccccc3)N2)cc1 (stereo not shown) — Ki (Slc18a2; binding; rat whole brain vesicles; with: 5 nM [3H]dihydrotetrabenazine): 0.27 ± 0.0067 µM
CC(C)[C@H]1CC[C@H](N2CC[C@@](C)(c3cccc(O)c3)[C@@H](C)C2)CC1 — Ki (Nociceptin receptor (OPRL1, Homo sapiens, UniProt P41146); ligand displacement, radioligand): > 10 µM
Cc1ccc(-c2nc3c(=O)n(C)c(=O)nc-3n(C)n2)cc1 — Ki (TPR; enzyme activity, inhibitor; with: trypanothione disulfide varied, NADPH 150 µM): 4.6 µM
O=c1c2ccc(Oc3ccc(OC(F)(F)F)cc3)cc2[nH]c2cccc(F)c12 — Ki (dihydroorotate dehydrogenase (Toxoplasma gondii, UniProt Q8MXD1); inhibitor): 0.098 µM
C/C(=N\OCCCN1CCCCC1)c1ccc(C(F)(F)F)cc1 — Ki (Tmem97; ligand displacement, radioligand): 0.2 µM
CCn1nc(-c2cccs2)nc2c(=O)n(C)c(=O)nc1-2 — Ki (TPR; enzyme activity, inhibitor; with: trypanothione disulfide varied, NADPH 150 µM): 3 µM
CN1CCN(C(=O)N[C@@H](Cc2ccccc2)C(=O)N[C@H](/C=C/S(=O)(=O)c2ccccc2)CCc2ccccc2)CC1 — Ki (Cathepsin S (CTSS, Homo sapiens, UniProt P25774); enzyme activity, inhibitor, fluorescence; pH 5.5): 0.002 µM
CCC(=O)c1ccc2c(c1)sc(=O)n2CCN1CCCCCC1 — Ki (Tmem97; ligand displacement, radioligand): 2.18 µM
N=C(N)NCCC[C@H](NC(=O)[C@@H]1CCCN1C(=O)[C@@H]1CSSC[C@H](N)C(=O)N[C@]2(CC[C@@H](c3ccccc3)CC2)C(=O)N[C@@H](Cc2ccccc2)C(=O)N[C@@H](CCC(N)=O)C(=O)N[C@@H](CC(N)=O)C(=O)N1)C(=O)NCC(N)=O — Ki (OXTR; [3H]oxytocin displacement; HEK293 expressing human oxytocin receptor; with: [3H]oxytocin 2 nM): 0.11 ± 0.026 µM
COc1c(OCCOCCOCCOCCOCCOCCOCCOc2cccc(C(=O)C3CCN(CCc4ccc(F)cc4)CC3)c2OC)cccc1C(=O)C1CCN(CCc2ccc(F)cc2)CC1 — Ki (HTR2B; ligand displacement, radioligand): 1.4 µM
O=c1sc2ccccc2n1CCCN1CCCCCC1 — Ki (Tmem97; ligand displacement, radioligand): 0.177 µM
CN(C)C(=N)N=C(N)N — Ki (Arginase-1 (ARG1, Homo sapiens, UniProt P05089); enzyme activity, inhibitor, absorbance): > 50000 µM
CC1(CCN2CCc3ccccc3C2)Cc2cc(Cl)ccc2C1=O (single isomer, unassigned) — Ki (HTR2B; ligand displacement, radioligand): 0.059 µM
CCOC(=O)C1=C[C@@H](OC(CC)CC)[C@H](NC(C)=O)[C@@H](N)C1 — Ki (MAOA (Homo sapiens, UniProt P21397); enzyme activity, inhibitor): ~28 µM
N=C(N)Nc1nc2ccc(Cl)cc2[nH]1 — Ki (Bifunctional dihydrofolate reductase-thymidylate synthase (Leishmania major, UniProt P07382); enzyme activity, competitive inhibitor; with: dihydrofolate 60 µM, NADPH 100 µM): 0.58 µM
CC[C@H](C)[C@@H]1NC(=O)[C@H](Cc2ccc(O)cc2)NC(=O)[C@@H](N)Cn2cc(nn2)CCCC[C@@H](C(=O)N2CCC[C@H]2C(=O)N[C@@H](CC(C)C)C(=O)NCC(N)=O)NC(=O)[C@H](CC(N)=O)NC(=O)[C@H](CCC(N)=O)NC1=O — Ki (OXTR; ligand displacement, radioligand; cell membranes): 2.8 µM
CC(C)(COP(=O)(O)OP(=O)(O)OC[C@H]1O[C@@H](n2cnc3c(N)ncnc32)[C@H](O)[C@@H]1OP(=O)(O)O)[C@@H](O)C(=O)NCCC(=O)NCCSCC(=O)N[C@@H](CO)C(=O)NCC(=O)N[C@@H](CCCNC(=N)N)C(=O)NCC(N)=O — Ki (NAA40 (Homo sapiens, UniProt Q86UY6); inhibitor): 0.0044 ± 0.00085 µM
Cc1cc(O)c(I)c(C)c1C[C@H](N)C(=O)N[C@H](C)C(=O)N[C@@H](Cc1ccccc1)C(=O)N[C@@H](Cc1ccccc1)C(N)=O — Ki (Oprm1; ligand displacement, radioligand; cell membranes): 0.001 µM
O=c1c(Cl)c(Cl)cnn1Cc1ccccc1Cl — Ki (Disulfide bond formation protein B (Escherichia coli, UniProt P0A6M2, C49V/C8A); enzyme activity, inhibitor): 0.0008 µM
CCC(=O)c1ccc2c(c1)sc(=O)n2CCN1CCCC1 — Ki (Tmem97; ligand displacement, radioligand): 4.79 µM
CC(C)C[C@H](NC(=O)[C@H](CCCNC(=N)N)NC(=O)[C@@H](NC(=O)[C@H](CC(=O)O)NC(=O)[C@H](CCC(N)=O)NC(=O)[C@@H](NC(=O)[C@@H](NC(=O)[C@H](CCCNC(=N)N)NC(=O)[C@H](CO)NC(=O)[C@@H](N)CO)[C@@H](C)O)C(C)C)[C@@H](C)O)C(=O)O — Ki (Na(+)/H(+) exchange regulatory cofactor NHE-RF1, PDZ1 domain (NHERF1, Homo sapiens, UniProt O14745)): 2.2 ± 1 µM
CC(=O)N[C@@H](CCCNC(=N)N)C(=O)N[C@@H](Cc1ccc(O)cc1)C(=O)N[C@H]1CCCNC(=N)NC(=O)NCCCCNC(=O)[C@H](Cc2ccc(O)cc2)NC(=O)[C@H](CCCNC(=N)N)NC(=O)[C@H](CC(C)C)NC1=O — Ki (NPY4R (Homo sapiens, UniProt P50391); ligand displacement, radioligand): 1.65 µM
O=c1oc2cc(O)c(O)cc2c2oc3cc4c(cc3c12)OCO4 — Ki (Genome polyprotein, NS5B polymerase (Hepatitis C virus genotype 1b, UniProt P26663); RNA polymerase activity, noncompetitive inhibitor vs UTP; with: UTP 2.5 to 80 µM varied, poly rA/U12 0.25 µM): 42 µM
CCCCc1ccc2c(c1)sc(=O)n2CCCCN1CCCCCC1 — Ki (Tmem97; ligand displacement, radioligand): 0.0044 µM
CNC(=O)C1CCN(c2ccccc2NC(=O)c2ccc(-c3cc(O)ccc3C)c(C)n2)CC1 — Ki (EPHA4 (Homo sapiens, UniProt P54764); cell-free assay, TR-FRET): 0.0004 µM
CN1C(CCCc2ccccc2)CCC1CCCc1ccccc1 (stereo not shown) — Ki (Slc18a2; binding; rat whole brain vesicles; with: 5 nM [3H]dihydrotetrabenazine): 2.78 ± 0.63 µM
COc1c(OCCOCCOc2cccc(C(=O)C3CCN(CCc4ccc(F)cc4)CC3)c2OC)cccc1C(=O)C1CCN(CCc2ccc(F)cc2)CC1 — Ki (HTR2B; ligand displacement, radioligand): 0.202 µM
O=C1C(P(=O)(O)O)CCCN1O (stereo not shown) — Ki (Alpha-enolase (ENO1, Homo sapiens, UniProt P06733); enzyme activity, inhibitor): 0.232 µM
C[n+]1ccc(C(=O)NC2CCC3(O)C4Cc5ccc(O)c6c5C3(CC[N+]4(C)CC3CC3)C2O6)cc1 (stereo not shown) — Ki (Oprd1 (Mus musculus, UniProt P32300); binding, radioligand displacement; CHO cell membranes; with: [3H]diprenorphine): 9.86 ± 1.14 µM
CC[C@H](C)[C@@H]1NC(=O)[C@H](Cc2ccc(O)cc2)NC(=O)[C@@H](N)Cn2cc(nn2)C[C@@H](C(=O)N2CCC[C@H]2C(=O)N[C@@H](CC(C)C)C(=O)NCC(N)=O)NC(=O)[C@H](CC(N)=O)NC(=O)[C@H](CCC(N)=O)NC1=O — Ki (OXTR; ligand displacement, radioligand; cell membranes): 2.5 µM
CCCC(=O)c1ccc2c(c1)sc(=O)n2CCCCCCN1CCCCCC1 — Ki (Tmem97; ligand displacement, radioligand): 0.0023 µM
[N-]=[N+]=NCc1cc(COc2ccc(C(O)CCC(=O)O)cc2)cc(N=[N+]=[N-])c1 (stereo not shown) — Ki (Calcium/calmodulin-dependent protein kinase type II subunit alpha, hub domain (Rattus norvegicus, UniProt P11275)): 0.066 µM
COc1c(OCCOCCOCCOc2cccc(C(=O)C3CCN(CCc4ccc(F)cc4)CC3)c2OC)cccc1C(=O)C1CCN(CCc2ccc(F)cc2)CC1 — Ki (HTR2B; ligand displacement, radioligand): 0.476 µM
CCCc1ccc2c(c1)sc(=O)n2CCCN1CCCCCC1 — Ki (Tmem97; ligand displacement, radioligand): 0.0172 µM

Some of these lines once more:
CC(=O)N[C@@H](CCCNC(=N)N)C(=O)N[C@@H](Cc1ccc(O)cc1)C(=O)N[C@H]1CCCNC(=N)NC(=O)NCCCCNC(=O)[C@H](Cc2ccc(O)cc2)NC(=O)[C@H](CCCNC(=N)N)NC(=O)[C@H](CC(C)C)NC1=O — Ki (NPY4R (Homo sapiens, UniProt P50391); ligand displacement, radioligand): 1.65 µM
O=c1oc2cc(O)c(O)cc2c2oc3cc4c(cc3c12)OCO4 — Ki (Genome polyprotein, NS5B polymerase (Hepatitis C virus genotype 1b, UniProt P26663); RNA polymerase activity, noncompetitive inhibitor vs UTP; with: UTP 2.5 to 80 µM varied, poly rA/U12 0.25 µM): 42 µM
CCCCc1ccc2c(c1)sc(=O)n2CCCCN1CCCCCC1 — Ki (Tmem97; ligand displacement, radioligand): 0.0044 µM
CNC(=O)C1CCN(c2ccccc2NC(=O)c2ccc(-c3cc(O)ccc3C)c(C)n2)CC1 — Ki (EPHA4 (Homo sapiens, UniProt P54764); cell-free assay, TR-FRET): 0.0004 µM
CN1C(CCCc2ccccc2)CCC1CCCc1ccccc1 (stereo not shown) — Ki (Slc18a2; binding; rat whole brain vesicles; with: 5 nM [3H]dihydrotetrabenazine): 2.78 ± 0.63 µM
COc1c(OCCOCCOc2cccc(C(=O)C3CCN(CCc4ccc(F)cc4)CC3)c2OC)cccc1C(=O)C1CCN(CCc2ccc(F)cc2)CC1 — Ki (HTR2B; ligand displacement, radioligand): 0.202 µM
